Assay results collected from several papers.
Numbered parts are unrelated; each lists some results of a single study.

Block 1 — method: universal PBM; form: double-stranded DNA, one strand shown; medium: in vitro; tested at: not given; reading: higher = stronger binding; quantity: E-score
Target: Sal-like protein 4, full length isoform B (SALL4, Homo sapiens, UniProt Q9UJQ4-2, residues 1-616)
Setting: 8-mer, flanks averaged, mean of replicates
Residues (chain): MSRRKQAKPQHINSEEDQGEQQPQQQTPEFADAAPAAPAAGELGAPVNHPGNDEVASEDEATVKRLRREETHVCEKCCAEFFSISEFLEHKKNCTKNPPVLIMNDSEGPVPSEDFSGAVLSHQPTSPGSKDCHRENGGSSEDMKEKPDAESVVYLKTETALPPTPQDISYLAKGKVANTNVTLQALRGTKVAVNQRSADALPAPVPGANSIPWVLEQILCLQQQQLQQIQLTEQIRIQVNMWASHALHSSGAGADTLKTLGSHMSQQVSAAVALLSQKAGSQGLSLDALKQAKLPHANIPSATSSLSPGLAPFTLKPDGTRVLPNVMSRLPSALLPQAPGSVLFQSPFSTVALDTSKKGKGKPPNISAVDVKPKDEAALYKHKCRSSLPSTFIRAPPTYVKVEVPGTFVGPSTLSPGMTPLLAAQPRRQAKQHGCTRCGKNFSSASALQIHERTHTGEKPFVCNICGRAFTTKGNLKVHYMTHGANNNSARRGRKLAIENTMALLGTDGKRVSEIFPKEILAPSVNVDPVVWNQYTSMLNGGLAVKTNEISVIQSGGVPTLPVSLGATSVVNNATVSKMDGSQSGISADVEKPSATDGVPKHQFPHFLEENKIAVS
Oligonucleotide = AAGGTGAA; result = -0.0636
Oligonucleotide = GCTGGAAC; result = -0.125
Oligonucleotide = CAGCTTGC; result = -0.083
Oligonucleotide = CGCAGGGC; result = -0.172
Oligonucleotide = AACAGTGG; result = -0.287

Block 2 — method: protein-binding microarray; form: double-stranded DNA, one strand shown; medium: in vitro; tested at: 250 nM; setting: 60-bp whole probe; together with: salmon DNA 0.4 mg/ml; baseline: random background probes; reading: higher = stronger binding; quantity: log fluorescence
Target: Interferon regulatory factor 7, full length, phosphomimetic (IRF7, Homo sapiens, UniProt Q92985, residues 1-503, S101K/S471D/S472D/S475D/S476D/S477D/S483D/S484D/S487D)
Construct (chain): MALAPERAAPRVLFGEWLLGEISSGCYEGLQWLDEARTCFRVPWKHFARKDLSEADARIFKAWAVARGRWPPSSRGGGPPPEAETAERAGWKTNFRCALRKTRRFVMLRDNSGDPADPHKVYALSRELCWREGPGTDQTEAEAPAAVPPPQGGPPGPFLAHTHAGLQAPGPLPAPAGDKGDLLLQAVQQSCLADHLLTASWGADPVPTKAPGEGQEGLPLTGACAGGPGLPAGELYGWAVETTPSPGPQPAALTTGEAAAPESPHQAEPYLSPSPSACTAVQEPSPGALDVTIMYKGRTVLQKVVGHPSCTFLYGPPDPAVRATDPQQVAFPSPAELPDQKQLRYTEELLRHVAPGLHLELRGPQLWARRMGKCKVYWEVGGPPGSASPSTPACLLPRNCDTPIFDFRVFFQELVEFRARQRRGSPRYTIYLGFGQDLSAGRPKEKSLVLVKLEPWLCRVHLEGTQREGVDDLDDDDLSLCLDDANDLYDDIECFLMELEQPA
Oligonucleotide = GCCTAGCACGACGATTTCGGAACTGGAGACGTGCTAGTCTTGATTCGCTTGACGCTGCTG; result = 0.429 z-score
Oligonucleotide = GCCTAGCACTCAGAGATTTTTCTCAAACTGTGCTAGGTCTTGATTCGCTTGACGCTGCTG; result = -0.423 z-score
Oligonucleotide = GCCTAGCACTTAGATTTCAGTTCCAATTAGTGCTAGGTCTTGATTCGCTTGACGCTGCTG; result = 1.08 z-score

Block 3 — method: aptamer microarray, sandwich; form: DNA with 2'F-ANA; medium: in vitro; tested at: 200 nM; together with: Cy3 exosite-II aptamer, 400 nM; reading: higher = stronger binding; quantity: mean fluorescence intensity
Target: Prothrombin, mature alpha-thrombin (F2, Homo sapiens, UniProt P00734)
Setting: whole 15-mer aptamer, many near background
Oligonucleotide = GGTTGGTGTGGTTGG (2'F-ANA at 2 3 7 8 9 12 13); result = 937 a.u.
Oligonucleotide = GGTTGGTGTGGTTGG (2'F-ANA at 2 4 5 6 7 8 9 11 14); result = 49.5 a.u.
Oligonucleotide = GGTTGGTGTGGTTGG (2'F-ANA at 1 3 4 7 9 12 14); result = 79.8 a.u.

Other studies, line by line
Substance = PhoQ, residues 284 288 289 292 302 303 NLMGRA; target = PhoP, residues 12 14 15 18 19 GQAIL (Escherichia coli, UniProt P23836); assay = Sort-seq, refers to: YFP reporter; system = E. coli; setting = PhoQ-PhoP variant library, together with: 10 µM Mg2+; scale = baseline: high Mg2+ state, higher = stronger signaling; quantity = fold induction; result = 16.6
